Experimental data collected from several papers.
Parts stem from different laboratories: compare values within a part only. Positions count from the first letter of the parent shown.

Series 1
Target: Interferon regulatory factor 5, full length, phosphomimetic (IRF5, Homo sapiens, UniProt Q13568-2, residues 1-514, K96S/S451D/S453D/S456D/S462D)
Method: protein-binding microarray
Form: double-stranded DNA, one strand shown
Medium: in vitro
Tested at: 250 nM
Notes: 60-bp whole probe
Together with: salmon DNA 0.4 mg/ml
Reference: random background probes
Reading: higher = stronger binding
All sequences stand within: GCCTAGCAC … GTCTTGATTCGCTTGACGCTGCTG
Oligonucleotide	log fluorescence [z-score]
TAGTTTCTAAAACTCTTTATGTGCTAG	2.19
GACGGACTTGGGTATCGGGACGTGCTA	0.283
GACGGACTGGGTTTGGGGACGTGCTAG	-0.631
TACGGTATCGGTTTCGGGACGTGCTAG	8.42
GATGGTTTCGGTCTCGGGACGTGCTAG	10.1
TTAGGATTGCTTATCCTTTAGTGCTAG	-0.54
TATGTTCCTTTAGCACTTTGGTGCTAG	0.309
GACGATTTCCGGACTGGAGACGTGCTA	-0.0124
TTAGGACTGGACCATCGGTTAGTGCTA	-0.259
GACGGTTTCGGGCATCGGGACGTGCTA	5.56
ATAGGTTTCCTTTCCCTTTAGTGCTAG	1.95
TTAGGACTGGACTATCGGTTAGTGCTA	5.71
CAGTTTTCCTCTGTCATTTTGTGCTAG	1.68
GCCGGTATCCTTTTCCTGACGTGCTAG	0.398
TCATGTTTGGGTCTTGTACTGTGCTAG	0.0995
GACGGTATCGTTTTCGGGACGTGCTAG	4.66
TTAGATTTCATACTGGATTAGTGCTAG	0.869
GACGGACTGAGTCTCGGGACGTGCTAG	-0.294
TTAGATTTCAGTATCGAATAGTGCTAG	4.88

Series 2
Target: RNA binding protein fox-1 homolog 2, RRM domain, GST-SBP tag (RBFOX2, Homo sapiens, UniProt O43251-10, residues 100-194)
Method: RNA Bind-n-Seq
Form: RNA
Medium: in vitro
Tested at: 365 nM
Notes: natural RNA segment, single round, ends assumed
Reference: no-protein control
Reading: higher = stronger binding
All sequences stand within: GGGAGUUCUACAGUCCGACGAUC … UGGAAUUCUCGGGUGCCAA
Construct (chain): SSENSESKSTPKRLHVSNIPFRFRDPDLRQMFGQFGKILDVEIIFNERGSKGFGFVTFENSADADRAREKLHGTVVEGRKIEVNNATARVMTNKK
Oligonucleotide	RBNS enrichment (R)
UUUGGAGACAGAAACAGGAGUUUCUCCAAAUCCAAUGAAAACAUGGAAAAUUCAAGGAUUGUUUAAAGGUCUGUGAUCAUCACAUACAAGAUGUAACUCUGGUUAUUUCA	0.471
CCUCCUUGUCCUGGAUUUCCAGCUCUCCCCAUGCCCCCUCCCUGAGCACCACCGGCACCGCCUCCCAAACAGGGCUGCUGGUUUCCGCAGCCACUGCUCCACCUCCCCCA	1.18
GAUAAAAUUGCCAAAGUGAUCCAAGGAUUGUGCAUGUUGGGAAACCCAUAUGAGAGAAAGGAUUCUCAUACUUAGAACUUUCCUAUGAAGAAAUGGUGGUAAACUUUCUC	18.7
CUUUGCUAUGUAGCUUAGAGUGACCUUAAACUUAUGAUCCCCCUGCCUCCACCUCCUCAAUGCCGUACCACUAUACCAGUUUGAGUGGUGCUGGGUAUGGAACCCAGGGC	0.353
GCAUUUUCUUCCCUAAAACCAACAGUGUCCCACUGACCUCCCCAAGUGUUUGCUGCGUGGCAGAUUUCCUGUUCUUGUUCGCAGUUUGCCGACUGAAGAGUGUGGGAUUU	1.23
GUUGUGAAGUGCAGGGCGGGAGGUGGGCGUGAGCUUUCUAUUUUGCGUUGUAGAAGAAGUGAGAUGUAGUAAGCUAAUUAACAGACUUUCUAGCAGUUCUUUUUGUGAUG	0.577
UGCAGCCCUCUCAGAACAGAGGGGUAGGGAGGGUGCACCAGUGCACCAGGAAGGCUGUGUGGGUCUGGAGCCCACGUCCCACCUCCACACCCUUGGCUUGGGCCCAUGCC	0.87
CUCGUUGUUUUCCCAAAGCUAAAUCUUUAUACUAAAUGCAAUACUGACUUUUUCUUAAGUAGCUAAAGACCGAGAGUAUACUAUCUUUAGGGAUAGUCAUUUCUCAAAUG	0.342

Series 3
Target: Histone acetyltransferase KAT6A, winged helix 2, GST fusion (KAT6A, Homo sapiens, UniProt Q92794, residues 85-181)
Method: protein binding microarray
Form: double-stranded DNA, one strand shown
Medium: in vitro
Tested at: not given
Notes: 8-mer, flanks averaged, mean of 2 arrays, mostly near background
Reference: not given
Reading: higher = stronger binding
Residues (chain): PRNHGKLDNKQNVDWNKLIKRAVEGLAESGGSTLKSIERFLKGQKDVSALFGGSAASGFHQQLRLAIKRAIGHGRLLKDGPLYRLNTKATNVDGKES
Oligonucleotide	E-score
GAACTCTC	-0.0371
ATACACTC	-0.0711
ATCTACCG	-0.0652
AAAGATTG	-0.188
GCCCGCCC	0.198
GACTCGGC	0.00919
AACGTCGT	-0.199
CCCCTAAA	-0.0584
CACCGGAA	0.13
ACCGGCGC	0.0767
ATTCGTTA	-0.0648
ACATGTGA	-0.306
ACTTTGCG	0.0668
CAGGACGC	0.0828
GCTACAAA	0.0795
CTGCGTCA	-0.0612
AGCTCCGA	0.0852
ACCGTTCA	-0.191
AATGTATA	-0.0191
AAGCGAGG	0.152
ACCTGGTC	0.0415
CCCGTCAG	-0.073
GTCTTTGA	0.0281
CCTGGCCG	0.0776
CCTCTCAG	-0.119

Series 4
Target: Sal-like protein 4, full length isoform B (SALL4, Homo sapiens, UniProt Q9UJQ4-2, residues 1-616)
Method: universal PBM
Form: double-stranded DNA, one strand shown
Medium: in vitro
Tested at: not given
Notes: 8-mer, flanks averaged, mean of replicates
Reading: higher = stronger binding
Oligonucleotide	E-score
GAGGTGAA	-0.0167
CGGGCTTC	-0.388
ATAGCTTA	0.203
AACACAAC	0.134
AGACGGTC	-0.152
AATTCTAA	0.248
CCGTCCTA	-0.00089
ATGGCCCG	-0.229
CCATCGTA	0.197
CTTAATAC	0.216
CCCTGACG	-0.217
CGAATTCA	-0.0121
GGACCGCC	-0.332
AAGTTATT	0.356
AACCGGAG	-0.194
ACGGCCAC	-0.139
GGGGGGTA	-0.249
GAACTGTC	-0.189
AGAAGTTC	-0.135
ACTTGATG	0.1
ATTCAGCC	0.0395
AACGCTGC	-0.068

Series 5
Target: CCNE2, cyclin fold, Cln2 fusion (human)
Method: yeast growth competition, sequencing
Medium: yeast
Notes: weak parent motif
Reference: not given
Reading: higher = stronger binding
Parent: SAMHD1 docking peptide (human); ASKSRVQLFKDDP
Variant	normalised enrichment score
D12G	0.0868
K3E	-0.177
S2T	-0.14
R5P	-0.505
R5I	0.229
K3Y	0.344
D11K	0.322
L8I	0.196
K10F	-0.415
Q7G	0.152
S2W	0.319
D11V	0.674
F9I	0.304
D11I	0.113
V6T	0.0613
Q7L	0.155
R5M	-0.177
S2P	0.121
S2R	-0.149
K3G	-0.118
S2I	0.646
S2N	0.174
D12N	0.472
V6F	0.296
D11R	0.561

Repeated from above (series 2):
Oligonucleotide	RBNS enrichment (R)
UUUGGAGACAGAAACAGGAGUUUCUCCAAAUCCAAUGAAAACAUGGAAAAUUCAAGGAUUGUUUAAAGGUCUGUGAUCAUCACAUACAAGAUGUAACUCUGGUUAUUUCA	0.471
CCUCCUUGUCCUGGAUUUCCAGCUCUCCCCAUGCCCCCUCCCUGAGCACCACCGGCACCGCCUCCCAAACAGGGCUGCUGGUUUCCGCAGCCACUGCUCCACCUCCCCCA	1.18
GAUAAAAUUGCCAAAGUGAUCCAAGGAUUGUGCAUGUUGGGAAACCCAUAUGAGAGAAAGGAUUCUCAUACUUAGAACUUUCCUAUGAAGAAAUGGUGGUAAACUUUCUC	18.7
CUUUGCUAUGUAGCUUAGAGUGACCUUAAACUUAUGAUCCCCCUGCCUCCACCUCCUCAAUGCCGUACCACUAUACCAGUUUGAGUGGUGCUGGGUAUGGAACCCAGGGC	0.353
GCAUUUUCUUCCCUAAAACCAACAGUGUCCCACUGACCUCCCCAAGUGUUUGCUGCGUGGCAGAUUUCCUGUUCUUGUUCGCAGUUUGCCGACUGAAGAGUGUGGGAUUU	1.23
GUUGUGAAGUGCAGGGCGGGAGGUGGGCGUGAGCUUUCUAUUUUGCGUUGUAGAAGAAGUGAGAUGUAGUAAGCUAAUUAACAGACUUUCUAGCAGUUCUUUUUGUGAUG	0.577
UGCAGCCCUCUCAGAACAGAGGGGUAGGGAGGGUGCACCAGUGCACCAGGAAGGCUGUGUGGGUCUGGAGCCCACGUCCCACCUCCACACCCUUGGCUUGGGCCCAUGCC	0.87
CUCGUUGUUUUCCCAAAGCUAAAUCUUUAUACUAAAUGCAAUACUGACUUUUUCUUAAGUAGCUAAAGACCGAGAGUAUACUAUCUUUAGGGAUAGUCAUUUCUCAAAUG	0.342
